Values quoted from earlier work, collected from citations in different studies.
Protocols differ between the studies behind these lines. In brackets after ≈: the same amount, converted by molar mass.

CCCCCCCCCCCCNC=C1N=C(c2ccc[nH]2)C=C1OC  IC50 (HepG2; cytotoxicity): 6100 nM
CN(C)c1ncnc2c1ncn2[C@@H]1O[C@H](CO)[C@@H](NC(=O)[C@@H](N)CSC(c2ccccc2)c2ccccc2)[C@H]1O  CC50 (Vero; MTT): > 100000 nM
CC[C@H](C)[C@H](NC(=O)CNC(=O)[C@@H](NC(=O)CNC(=O)[C@@H](NC(=O)CNC(=O)[C@@H](NC(=O)[C@@H](NC(=O)[C@H](CCC(N)=O)NC(=O)[C@H](CCC(=O)O)NC(=O)[C@@H](NC(=O)[C@H](CC(C)C)NC(=O)[C@H](CCCNC(=N)N)NC(=O)[C@H](Cc1ccccc1)NC(=O)[C@@H](NC(=O)[C@H](CC(N)=O)NC(=O)[C@H](CCCCN)NC(=O)CNC(=O)[C@H](CCSC)NC(=O)[C@H](CCCCN)NC(=O)CNC(=O)[C@H](CC(C)C)NC(=O)[C@H](CCCCN)NC(=O)[C@H](CCCCN)NC(=O)CNC(=O)[C@H](Cc1ccccc1)NC(=O)[C@H](CCCCN)NC(=O)[C@H](CCCCN)NC(=O)[C@H](CC(C)C)NC(=O)[C@H](Cc1c[nH]c2ccccc12)NC(=O)CN)C(C)C)C(C)C)C(C)C)C(C)C)C(C)C)C(C)C)C(=O)N[C@@H](CC(N)=O)C(=O)N[C@@H](C)C(=O)N[C@@H](CC(C)C)C(=O)N[C@@H](CO)C(=O)O  MIC (Staphylococcus aureus): 128 µM (≈ 481 µg/mL)
CCC(=O)OC1C(=O)C2(C)C(O)CC3OCC3(OC(C)=O)C2C(OC(=O)c2cccc(OC(F)F)c2)C2(O)CC(OC(=O)C(O)C(C=C(C)C)NC(=O)OC(C)(C)C)C(C)=C1C2(C)C (centres unmarked)  IC50 (CFPAC-1; cytotoxicity): 0.42 nM
CC(C)[C@H](NC(=O)[C@H](CCCNC(=N)N)NC(=O)[C@H](Cc1ccccc1)NC(=O)[C@H](CS)NC(=O)[C@@H](N)Cc1c[nH]c2ccccc12)C(=O)N[C@@H](CS)C(=O)N[C@@H](Cc1ccccc1)C(=O)N[C@@H](CCCCN)C(=O)NCC(=O)N[C@@H](Cc1ccccc1)C(=O)N[C@@H](CS)C(=O)N[C@@H](Cc1ccc(O)cc1)C(=O)N[C@@H](CCCNC(=N)N)C(=O)N[C@@H](Cc1ccccc1)C(=O)N[C@@H](CS)C(=O)O  MIC (Pseudomonas aeruginosa): 32 µM (≈ 62.9 µg/mL)
CC[C@H](C)[C@H](NC(=O)[C@H](CCCN)NC(=O)[C@H](CCCNC(=N)N)NC(=O)[C@@H]1CCCN1C(=O)[C@@H]1CCCN1C(=O)[C@H](CCCNC(=N)N)NC(=O)[C@@H]1CCCN1C(=O)[C@H](CCCNC(=N)N)NC(=O)[C@@H]1CCCN1C(=O)[C@H](CC(C)C)NC(=O)[C@H](Cc1ccc(O)cc1)NC(=O)[C@@H]1CCCN1C(=O)[C@@H]1CCCN1C(=O)[C@H](CCCCN)NC(=O)[C@H](CC(=O)O)NC(=O)[C@@H](N)C(C)C)C(=O)N[C@@H](Cc1ccc(O)cc1)C(=O)N[C@@H](CC(N)=O)C(=O)N[C@@H](CCCN)C(N)=O  tolerability (mouse; intraperitoneal, 160 mg/kg total, outcome: not toxic): not toxic
FC(F)(F)Oc1ccc(CCNc2cc(-c3ccccc3)nc3ncnn23)cc1  CC50 (HepG2): > 100000 nM
CC(=O)OC12COC1CC(O)C1(C)C(=O)C(OC(=O)C3CC3)C3=C(C)C(OC(=O)C(O)C(C=C(C)C)NC(=O)OC(C)(C)C)CC(O)(C(OC(=O)c4cccc(OC(F)(F)F)c4)C21)C3(C)C (centres unmarked)  IC50 (CFPAC-1; cytotoxicity): 0.79 nM
c1ccc2cc3c(ccc4ccccc43)cc2c1  bioconcentration factor (fish; dose not given, experimental mean): 383000 L/kg
COC(=O)OC1C(=O)C2(C)C(O)CC3OCC3(OC(C)=O)C2C(OC(=O)c2cccc(OC(F)F)c2)C2(O)CC(OC(=O)C(O)C(C=C(C)C)NC(=O)OC(C)(C)C)C(C)=C1C2(C)C (centres unmarked)  IC50 (CFPAC-1; cytotoxicity): 0.49 nM
COc1cc2c(cc1-n1ccnc1)C[C@H]1[C@H]3CCCC[C@@]23CCN1C  intrinsic clearance (mouse liver microsomes): 47.4 µL/min/mg protein

For quick reference, copied from above:
FC(F)(F)Oc1ccc(CCNc2cc(-c3ccccc3)nc3ncnn23)cc1  CC50 (HepG2): > 100000 nM
CC(C)[C@H](NC(=O)[C@H](CCCNC(=N)N)NC(=O)[C@H](Cc1ccccc1)NC(=O)[C@H](CS)NC(=O)[C@@H](N)Cc1c[nH]c2ccccc12)C(=O)N[C@@H](CS)C(=O)N[C@@H](Cc1ccccc1)C(=O)N[C@@H](CCCCN)C(=O)NCC(=O)N[C@@H](Cc1ccccc1)C(=O)N[C@@H](CS)C(=O)N[C@@H](Cc1ccc(O)cc1)C(=O)N[C@@H](CCCNC(=N)N)C(=O)N[C@@H](Cc1ccccc1)C(=O)N[C@@H](CS)C(=O)O  MIC (Pseudomonas aeruginosa): 32 µM (≈ 62.9 µg/mL)
